Experimental data of several laboratories.
Each line is one published result; not all experiments were run side by side. ± marks the error that the study gave.

| Compound | assay | test system | setting | scale | endpoint | result |
| --- | --- | --- | --- | --- | --- | --- |
| CC(C)C[C@@H]1NC(=O)[C@@H](Cc2c[nH]c3ccccc23)NC(=O)[C@H](CCCNC(=N)N)NC(=O)[C@@H](CCC(=O)O)NC(=O)[C@H](CCC(N)=O)NC(=O)[C@@H](CCC(=O)O)NC(=O)[C@H](CCCNC(=N)N)NC(=O)[C@@H](Cc2c[nH]c3ccccc23)NC1=O |  | LDLr-/- mouse, western diet, plasma | oral, drinking water, 35 mg/kg/day, 2 weeks | baseline: untreated western diet group | total cholesterol reduction | 36% |
| CSCC[C@H](NC(=O)[C@H](CCCNC(=N)N)NC(=O)[C@H](CCCNC(=N)N)NC(=O)[C@H](CCCCN)NC(=O)[C@H](C)NC(=O)[C@H](CCCNC(=N)N)NC(=O)CNC(=O)[C@@H](NC(=O)CN1CCN(CC(=O)O)CCN(CC(=O)O)CCN(CC(=O)O)CC1)[C@@H](C)O)C(=O)N[C@@H](CCC(N)=O)C(=O)N[C@@H](Cc1ccc(O)cc1)C(=O)N[C@@H](CC(N)=O)C(=O)N[C@@H](CCCNC(=N)N)C(=O)N[C@@H](CCCNC(=N)N)C(=O)O [gallium-68 labelled] |  | rat, S. aureus infection | iv, 20 min |  | target to background ratio | 1.6 |
| CC[C@H](C)[C@H](NC(=O)[C@H](CCCNC(=N)N)NC(=O)[C@H](CCC(N)=O)NC(=O)[C@H](CC(=O)O)NC(=O)[C@H](CC(C)C)NC(=O)[C@H](CC(C)C)NC(=O)[C@H](CC(N)=O)NC(=O)[C@H](Cc1ccccc1)NC(=O)[C@H](CC(=O)O)NC(=O)[C@@H](NC(=O)[C@@H](NC(=O)[C@H](CC(N)=O)NC(=O)CNC(=O)[C@H](CO)NC(C)=O)C(C)C)[C@@H](C)CC)C(=O)N[C@H](C(=O)N[C@@H](Cc1c[nH]c2ccccc12)C(=O)N[C@@H](CCC(N)=O)C(=O)N[C@@H](CC(N)=O)C(=O)N[C@@H](Cc1c[nH]c2ccccc12)C(=O)N[C@@H](Cc1ccc(O)cc1)C(=O)N[C@@H](C)C(N)=O)[C@@H](C)CC | refers to: HA-02 tetramer | antigen-experienced tetramer+ CD4 T cells, healthy adults, HLA-DRB1*0101 | dose not given |  | α4β7+ CCR9+ cells | 14.3% |
| CC[C@H](C)[C@H](NC(=O)[C@H](CCC(=O)O)NC(=O)CNC(=O)[C@@H](NC(=O)[C@H](CC(C)C)NC(=O)[C@H](CC(C)C)NC(=O)[C@H](CC(C)C)NC(=O)[C@H](CC(C)C)NC(=O)[C@H](CS)NC(=O)[C@H](CO)NC(=O)[C@H](Cc1ccccc1)NC(=O)CNC(=O)[C@H](CCCNC(=N)N)NC(=O)[C@@H]1CCCN1C(=O)[C@H](C)NC(=O)[C@H](CCSC)NC(=O)CNC(=O)CNC(=O)[C@H](Cc1ccccc1)NC(=O)[C@H](CCCCN)NC(=O)[C@H](Cc1c(C)cc(O)cc1C)NC(=O)[C@H](N)CCCNC(=N)N)[C@@H](C)O)C(=O)N[C@@H](CC(=O)O)C(=O)N[C@@H](CC(C)C)C(=O)N1CCC[C@H]1C(=O)N[C@H](C(=O)N[C@@H](CCCCN)C(=O)N[C@@H](CCCNC(=N)N)C(=O)N[C@@H](CCCNC(=N)N)C(=O)N[C@@H](C)C(N)=O)C(C)C | Morris water maze | transgenic AD mice, 10 months | iv, 88.4 nmol/kg/day, after 6 days training |  | escape latency | 34.4 ± 4.1 s |
| CC[C@H](C)[C@H](NC(=O)[C@@H](NC(=O)[C@H](CC(=O)O)NC(C)=O)[C@@H](C)O)C(=O)N[C@@H](CCCNC(=N)N)C(=O)N[C@@H](CC(C)C)C(=O)N[C@@H](CC(C)C)C(=O)N[C@@H](Cc1ccccc1)C(=O)N[C@@H](CCC(N)=O)C(=O)N[C@@H](CC(C)C)C(=O)N[C@@H](CCSC)C(=O)N[C@@H](CCCNC(=N)N)C(=O)N1CCC[C@H]1C(=O)N1CCC[C@H]1C(=O)N[C@@H](CC(N)=O)C(=O)N[C@@H](CCSC)C(=O)N[C@H](C(=O)N1CCC[C@H]1C(=O)N[C@@H](C)C(=O)N[C@H](C(=O)N[C@@H](CC(N)=O)C(=O)N[C@@H](C)C(N)=O)C(C)C)[C@@H](C)O | refers to: HA-51 tetramer | antigen-experienced tetramer+ CD4 T cells, healthy adults, HLA-DRB1*0101 | dose not given |  | α4β7+ CCR9+ cells | 23.5% |
| CN(C)CCN(Cc1ccccc1)C(=O)c1cc(-c2ccc(F)cc2)n2nc(C(C)(C)C)cc2n1 | refers to: CD11b | Tg6799 mouse, cortex | dose not given, four months |  | microgliosis | decreased |
| N=C(N)NCCC[C@H](NC(=O)[C@@H]1CCCN1C(=O)[C@@H]1CSSC[C@H](N)C(=O)N[C@@H](Cc2ccc(O)cc2)C(=O)N[C@@H](Cc2ccccc2)C(=O)N[C@@H](CCC(N)=O)C(=O)N[C@@H](CC(N)=O)C(=O)N1)C(=O)NCC(N)=O |  | male Sprague-Dawley rat, conscious | intra-arterial, 100 ng/kg | baseline: pre-injection baseline | peak heart rate decrease | 99 beats/min |
| CCN(C)C(=O)Oc1ccccc1/C=C1\Cc2cc(OC)c(OC)cc2C1=O |  | C57BL/6J mice, tumour-bearing, irinotecan gut toxicity, colon | dose not given, at high dose, added: irinotecan |  | UGT1A1 expression | increased |
| CSCC[C@H](NC(=O)CNC(=O)[C@H](CC(=O)O)NC(=O)[C@@H](NC(=O)[C@@H](NC(=O)[C@@H](NC(=O)CNC(=O)[C@H](CCC(N)=O)NC(=O)[C@H](CCSC)NC(=O)[C@H](CC(=O)O)NC(=O)[C@H](C)NC(=O)[C@H](C)NC(=O)[C@@H](NC(=O)[C@H](CO)NC(=O)[C@@H](N)CC(C)C)[C@@H](C)O)C(C)C)C(C)C)[C@@H](C)O)C(=O)N[C@@H](C)C(=O)N[C@@H](CO)C(=O)NCC(=O)N[C@@H](CC(C)C)C(=O)N[C@@H](CC(=O)O)C(=O)N[C@@H](CCCCN)C(=O)N[C@@H](CC(=O)O)C(=O)N[C@@H](Cc1ccc(O)cc1)C(=O)N[C@@H](CC(C)C)C(=O)N[C@@H](CCCCN)C(=O)N1CCC[C@H]1C(=O)N[C@@H](CC(=O)O)C(=O)N[C@@H](CC(=O)O)C(=O)O |  | p53-positive advanced solid tumour patients | dose not given, three patients |  | partial response duration | 44 to 125 weeks |
| CCOC(=O)Nc1ccc2c(c1)CN1C(=S)N(c3ccc(C#N)c(C(F)(F)F)c3)C(=O)C1C2 (stereo not shown) |  | mouse, 22Rv1 orthotopic xenograft | intravenous, 25 mg/kg/day | baseline: vehicle | increase in apoptosis rate | 5 fold |
| O=C(O)/C=C/c1cc(O)cc(O)c1 | DPPH radical scavenging |  | 1000 µg/mL |  | inhibition | 85.2 ± 1.1% |
| CC(C)C[C@H](NC=O)C(=O)N[C@@H](C)C(=O)N[C@@H](C)C(=O)N[C@@H](CC(=O)O)C(=O)N[C@@H](CC(C)C)C(=O)N[C@@H](CC(C)C)C(=O)N[C@@H](C)C(=O)N[C@@H](C)C(=O)N[C@@H](CC(C)C)C(=O)NCC(=O)N[C@@H](CC(=O)O)C(=O)N[C@@H](CC(C)C)C(=O)N[C@@H](CC(C)C)C(=O)N[C@@H](CCCCN)C(=O)N[C@@H](Cc1c[nH]c2ccccc12)C(=O)N[C@@H](CC(C)C)C(=O)N[C@@H](CC(C)C)C(=O)N[C@@H](CC(=O)O)C(=O)N[C@@H](C)C(=O)N[C@@H](CC(C)C)C(=O)N[C@@H](C)C(=O)N[C@@H](CCCCN)C(=O)N[C@@H](CC(C)C)C(=O)N[C@@H](C)C(=O)N[C@@H](CCCCN)C(=O)N[C@@H](CCCCN)C(=O)O (racemic) | carboxyfluorescein release, stopped-flow fluorescence | POPC vesicles 50 µM | up to 1 µM, pH 7.5, peptide/lipid 1:50 |  | time constant | 650 s |
| CC(COC(=O)c1ccccc1)OC(=O)C(N)Cc1ccccc1 (mixture of isomers) |  | Caco-2 cell homogenate | prodrug to BA-PG step |  | hydrolysis rate constant | 0.192 min⁻¹ |
| CCOP(=O)(OCC)OCCCCOC(=O)CC1=C(C)C(=Cc2ccc([S+](C)[O-])cc2)c2ccc(F)cc21 (stereo not shown) | ELISA | mice, orthotopic lung tumour, plasma | inhalation, dose not given | baseline: control | plasma 8-iso-PGF2α level | > 2 fold |
| O=c1c(O)c(-c2cc(O)ccc2O)oc2cc(O)cc(O)c12 | DPPH radical scavenging |  | 1000 µg/mL |  | inhibition | 87.4 ± 1.2% |
| COc1ccc([N+](=O)[O-])cc1NC(=O)CCC(=O)[O][Zn][O]C(=O)CCC(=O)Nc1cc([N+](=O)[O-])ccc1OC.c1ccncc1 | DPPH scavenging, absorbance |  | 500 µg/mL |  | inhibition | 71.7% |
| CC(C)C[C@@H]1NC(=O)[C@H](C(C)C)NC(=O)[C@H](CO)NC(=O)CNC(=O)CNC(=O)[C@H](CCCNC(=N)N)NC(=O)[C@@H]2CCCN2C(=O)[C@@H](NC(=O)CC[C@H](NC(=O)c2ccc(N(C)Cc3cnc4nc(N)nc(N)c4n3)cc2)C(=O)O)C(C)(C)SSC[C@@H](C(=O)O)NC(=O)CNC(=O)[C@H]([C@@H](C)O)NC(=O)[C@H](C(C)C)NC1=O |  | rat adjuvant arthritis | iv, 1 mg/kg once daily day 0-14, day 14 |  | paw weight | 3.46 ± 0.085 g |
| CCC(NC(=O)C(CC(C)C)NC(=O)CCc1ccccc1)C(=O)C(=O)NCc1cc(F)cc(OC)c1 (stereo not shown) | TUNEL | mouse traumatic brain injury model (controlled cortical impact) | intraperitoneal, 0.1 or 1.0 mg/kg |  | cell death | no effect |
| Cc1ccc(/C=C/C(=O)O)cc1-c1cc2c(cc1C)C(C)(C)CCC2(C)C | RNA sequencing, refers to: Lyve1 | rat, brain | dose not given, 24 h | baseline: vehicle | log2 fold change | -0.13 |
| CCOP(=O)(OCC)OCCCCOC(=O)CC1=C(C)/C(=C/c2ccc([S+](C)[O-])cc2)c2ccc(F)cc21 (stereo not shown) | bone resorption | rat, Freund's adjuvant arthritis | oral, 50 mg/kg once daily, prevention protocol |  | inhibition | 40% |
| CC[C@H](C)[C@H](NC(=O)[C@H](Cc1c[nH]c2ccccc12)NC(=O)[C@H](CCCNC(=N)N)NC(=O)[C@H](CCCCN)NC(=O)[C@H](CC(C)C)NC(=O)[C@H](CC(=O)O)NC(=O)[C@H](Cc1ccccc1)NC(=O)[C@H](C)NC(=O)[C@H](Cc1ccc(O)cc1)NC(=O)[C@H](CC(N)=O)NC(=O)[C@H](Cc1ccc(O)cc1)NC(=O)[C@H](CCCNC(=N)N)NC(=O)[C@H](Cc1ccc(O)cc1)NC(=O)[C@H](Cc1ccc(O)cc1)NC(=O)[C@@H](NC(=O)[C@H](CC(C)C)NC(=O)[C@H](C)NC(=O)[C@H](CC(N)=O)NC(=O)[C@H](Cc1ccc(O)cc1)NC(C)=O)[C@@H](C)CC)C(=O)N[C@@H](Cc1ccc(O)cc1)C(=O)N[C@@H](CC(C)C)C(N)=O | refers to: HA-02 tetramer | antigen-experienced tetramer+ CD4 T cells, healthy adults, HLA-DRB1*0101 | dose not given |  | α4β7+ CCR9− cells | 54.5% |
| CC[C@@]1(O)C(=O)OCc2c1cc1n(c2=O)Cc2cc3cc(OC(=O)CCCC(=O)NCC(=O)N[C@@H](Cc4ccccc4)C(=O)N[C@@H](Cc4ccccc4)C(=O)N[C@@H](Cc4ccc(OP(=O)(O)O)cc4)C(=O)NCCSSCCNC(=O)CCC(=O)N[C@@H](CCC(=O)O)C(=O)N[C@@H](CCCNC(=N)N)C(=O)NCC(=O)N[C@@H](CC(=O)O)C(=O)O)ccc3nc2-1 |  | nude mice, HepG2 xenograft | intravenous, 3 mg/kg HCPT equivalent, three doses, initial 300 mm^3 |  | tumour volume | ~103 mm³ |

Some of these lines once more:
| Compound | assay | test system | setting | scale | endpoint | result |
| --- | --- | --- | --- | --- | --- | --- |
| CC(C)C[C@H](NC=O)C(=O)N[C@@H](C)C(=O)N[C@@H](C)C(=O)N[C@@H](CC(=O)O)C(=O)N[C@@H](CC(C)C)C(=O)N[C@@H](CC(C)C)C(=O)N[C@@H](C)C(=O)N[C@@H](C)C(=O)N[C@@H](CC(C)C)C(=O)NCC(=O)N[C@@H](CC(=O)O)C(=O)N[C@@H](CC(C)C)C(=O)N[C@@H](CC(C)C)C(=O)N[C@@H](CCCCN)C(=O)N[C@@H](Cc1c[nH]c2ccccc12)C(=O)N[C@@H](CC(C)C)C(=O)N[C@@H](CC(C)C)C(=O)N[C@@H](CC(=O)O)C(=O)N[C@@H](C)C(=O)N[C@@H](CC(C)C)C(=O)N[C@@H](C)C(=O)N[C@@H](CCCCN)C(=O)N[C@@H](CC(C)C)C(=O)N[C@@H](C)C(=O)N[C@@H](CCCCN)C(=O)N[C@@H](CCCCN)C(=O)O (racemic) | carboxyfluorescein release, stopped-flow fluorescence | POPC vesicles 50 µM | up to 1 µM, pH 7.5, peptide/lipid 1:50 |  | time constant | 650 s |
